# Results gathered from unrelated publications.
# Protocols differ between the studies behind these lines. Numbers after ± are the reported error.
# rep main protease: Replicase polyprotein 1ab, main protease (rep, Middle East respiratory syndrome-related coronavirus, UniProt K9N7C7)
# rep macrodomain 1: Replicase polyprotein 1ab, macrodomain 1 (rep, Middle East respiratory syndrome-related coronavirus, UniProt K9N7C7)
# rep papain-like protease: Replicase polyprotein 1ab, papain-like protease (rep, Middle East respiratory syndrome-related coronavirus, UniProt K9N7C7)
# OPRM1: Mu-type opioid receptor (OPRM1, Homo sapiens, UniProt P35372)
# Chain of UniProt P35372 (whole entry, looked up): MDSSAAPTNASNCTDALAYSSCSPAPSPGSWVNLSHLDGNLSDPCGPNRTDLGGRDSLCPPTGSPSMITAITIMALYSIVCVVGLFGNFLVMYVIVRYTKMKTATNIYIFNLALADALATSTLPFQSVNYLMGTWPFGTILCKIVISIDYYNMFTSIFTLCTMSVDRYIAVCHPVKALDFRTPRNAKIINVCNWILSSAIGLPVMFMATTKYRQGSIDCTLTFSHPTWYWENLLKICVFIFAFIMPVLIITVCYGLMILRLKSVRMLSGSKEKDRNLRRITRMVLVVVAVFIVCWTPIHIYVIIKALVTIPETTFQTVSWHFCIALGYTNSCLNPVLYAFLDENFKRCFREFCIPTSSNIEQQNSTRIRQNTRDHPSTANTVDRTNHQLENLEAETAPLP
Compound,target or system,assay,test system,setting,quantity,value
C=CC(=O)NC(CC(=C)C)C(=O)N1CC(C(=O)NC(CCSC)C(=O)NC)C(c2cccc(C(F)(F)F)c2)C1 (stereo not shown),rep main protease,"enzyme activity, inhibitor",,,IC50,> 100 µM
COc1cc(OC)cc(C(=O)N(CCC(=O)N2CCNCC2)Cc2cccc(Cl)c2)c1,rep macrodomain 1,inhibitor,,MERS-CoV,IC50,> 300 µM
CN(C)c1ccc(/C=C/C(=O)N[C@@H](Cc2ccccc2)C(=O)N[C@H](C=O)C[C@@H]2CCNC2=O)cc1,rep main protease,"enzyme activity, inhibitor",,,IC50,4.7 µM
O=C(c1ccc(Br)cc1)N1CCC(c2ccn3ncc(C(=O)N4CCCCC4)c3c2)CC1,rep macrodomain 1,inhibitor,,MERS-CoV,IC50,182 ± 4.7 µM
C=CC(=O)NC(CC(=C)C)C(=O)N1CC(C(=O)NC(Cc2ccccc2)C(=O)NC)C(c2cccc(C(F)(F)F)c2)C1 (stereo not shown),rep main protease,"enzyme activity, inhibitor",,,IC50,> 100 µM
COC(=O)[C@H](C[C@@H]1CCNC1=O)NC(=O)[C@H](Cc1ccccc1)NC(=O)/C=C/c1ccc2c(c1)OCO2,rep main protease,"enzyme activity, inhibitor",,,IC50,> 25 µM
C=CCC(NC(=O)C1CN(C(=O)C(CC(=C)C)NC(=O)C=C)CC1c1cccc(C(F)(F)F)c1)C(=O)NC (stereo not shown),rep main protease,"enzyme activity, inhibitor",,,IC50,> 100 µM
CCC(C(=O)Nc1ccccc1)n1cccc2nc(SCc3ccc(F)cc3)nc1-2 (stereo not shown),rep papain-like protease,"enzyme activity, inhibitor",,,IC50,> 100 µM
O=C[C@H](C[C@@H]1CCNC1=O)NC(=O)[C@H](Cc1ccccc1)NC(=O)/C=C/c1cccc(Br)c1,rep main protease,"enzyme activity, inhibitor",,,IC50,2.4 µM
CCC[C@H](NC(=O)[C@H](CC(C)C)NC(=O)OCc1ccccc1)C(=O)C(=O)NCc1ccccn1,rep main protease,"enzyme activity, inhibitor",,,IC50,6.68 µM
CCC(C(=O)Nc1ccccc1C)n1c(SCc2ccc(F)cc2)nc2cccnc21 (stereo not shown),rep papain-like protease,"enzyme activity, inhibitor",,,IC50,> 100 µM
CC(C)C[C@H](NC(=O)[C@H](CO)NC(=O)[C@H](CCCCN)NC(=O)[C@H](CC(C)C)NC(=O)[C@H](C)NC(=O)[C@H](CCCCN)NC(=O)[C@H](CCC(=O)O)NC(=O)[C@H](C)NC(=O)[C@H](CC(C)C)NC(=O)[C@H](CC(N)=O)NC(=O)[C@@H]1CCCN1C(=O)[C@H](CC(C)C)NC(=O)[C@H](Cc1ccccc1)NC(=O)CNC(=O)[C@H](NC(=O)[C@@H](N)Cc1ccc(O)cc1)[C@H](C)O)C(N)=O,OPRM1,radioligand displacement,CHO membranes,"60 min, pH 7.5, 25 °C, together with: 0.25 nM [3H]DAMGO",Ki,14 ± 2.3 nM
CCC(C(=O)Nc1ccccc1C)n1c(SCc2ccc(F)cc2)nc2ncccc21 (stereo not shown),rep papain-like protease,"enzyme activity, inhibitor",,,IC50,> 100 µM
CC(C)C[C@H](NC(=O)[C@H](CO[C@@H]1O[C@H](CO)[C@@H](O[C@@H]2O[C@H](CO)[C@H](O)[C@H](O)[C@H]2O)[C@H](O)[C@H]1O)NC(=O)[C@H](CCCCN)NC(=O)[C@H](CC(C)C)NC(=O)[C@H](C)NC(=O)[C@H](CCCCN)NC(=O)[C@H](CCC(=O)O)NC(=O)CNC(=O)[C@H](CC(C)C)NC(=O)[C@H](CC(N)=O)NC(=O)[C@@H]1CCCN1C(=O)[C@H](CC(C)C)NC(=O)[C@H](Cc1ccccc1)NC(=O)CNC(=O)[C@H](NC(=O)[C@@H](N)Cc1ccc(O)cc1)[C@H](C)O)C(N)=O,OPRM1,radioligand displacement,CHO membranes,"60 min, pH 7.5, 25 °C, together with: 0.25 nM [3H]DAMGO",Ki,9.8 ± 0.97 nM
CCCC(C(=O)Nc1ccccc1C)n1c(SCc2ccc(F)cc2)nc2cccnc21 (stereo not shown),rep papain-like protease,"enzyme activity, inhibitor",,,IC50,> 100 µM
CCCCCCCCCCCCCCCC(=O)N[C@@H](CCC(=O)NCCOCCOCCC(=O)NCCOCCOCCC(=O)NCCCC[C@H](NC(=O)[C@H](CC(=O)O)NC(=O)[C@H](CC(C)C)NC(=O)[C@H](Cc1ccc(O)cc1)NC(=O)[C@H](CCCCN)NC(=O)[C@H](CO)NC(=O)[C@H](Cc1ccc(O)cc1)NC(=O)[C@H](CC(=O)O)NC(=O)[C@H](CO)NC(=O)[C@@H](NC(=O)[C@H](Cc1ccccc1)NC(=O)[C@@H](NC(=O)CNC(=O)[C@H](CCC(N)=O)NC(=O)[C@@H](CO)NC(=O)[C@@H](N)Cc1c[nH]cn1)[C@@H](C)O)[C@@H](C)O)C(=O)N[C@@H](CCCNC(=N)N)C(=O)N[C@@H](CCCNC(=N)N)C(=O)N[C@@H](C)C(=O)N[C@@H](CCC(N)=O)C(=O)N[C@@H](CC(=O)O)C(=O)N[C@@H](Cc1ccccc1)C(=O)N[C@H](C(=O)N[C@@H](CCC(N)=O)C(=O)N[C@@H](Cc1c[nH]c2ccccc12)C(=O)N[C@@H](CC(C)C)C(=O)N[C@@H](CC(C)C)C(=O)N[C@@H](CC(N)=O)C(=O)N[C@H](C(=O)NCC(=O)NCC(=O)N1CCC[C@H]1C(=O)N[C@@H](CO)C(=O)N[C@@H](CO)C(=O)NCC(=O)N[C@@H](C)C(=O)N1CCC[C@H]1C(=O)N1CCC[C@H]1C(=O)N1CCC[C@H]1C(=O)N[C@@H](CO)C(N)=O)[C@@H](C)O)C(C)C)C(=O)O,,,"rhesus monkey, plasma","intravenous, 15.3 µg/kg, single dose",half-life,29.9 min

# Excerpt of the above:
Compound,target or system,assay,test system,setting,quantity,value
CCC(C(=O)Nc1ccccc1)n1cccc2nc(SCc3ccc(F)cc3)nc1-2 (stereo not shown),rep papain-like protease,"enzyme activity, inhibitor",,,IC50,> 100 µM
CCC(C(=O)Nc1ccccc1C)n1c(SCc2ccc(F)cc2)nc2ncccc21 (stereo not shown),rep papain-like protease,"enzyme activity, inhibitor",,,IC50,> 100 µM
